Experimental data collected from several papers.
Each line is one published result; not all experiments were run side by side. ± gives the spread as reported.

COc1cc(C=CC(=O)O)ccc1OS(=O)(=O)O — plasma concentration (human plasma; median): 1170 nM
O=C(O)CCC(=O)O.[2H]C([2H])([2H])Oc1cc(C)c2[nH]ccc2c1CN1CC[C@@H](C2CC2)C[C@H]1c1ccc(C(=O)O)cc1 — subjects with muscle pain TEAE (multiple ascending dose; healthy Chinese subjects; 100 mg twice daily): 0%
CC(C)C[C@H](NC(=O)[C@@H](Cc1c[nH]c2ccccc12)NC(=O)[C@H](Cc1ccc(O)cc1)NC(=O)[C@H](CO)NC(=O)[C@H](Cc1c[nH]c2ccccc12)NC(=O)[C@H](Cc1c[nH]cn1)NC(=O)[C@@H]1CCC(=O)N1)C(=O)N[C@@H](CCCNC(=N)N)C(=O)N1CCC[C@H]1C(=O)NCC(N)=O — patients, drug-related Overweight TEAEs (Chinese CPP children; intramuscular, 22.5 mg, 12 months, day 1, month 6): 1.5%
CCn1cc(C(=O)O)c(=O)c2cc(F)c(N3CCNCC3)cc21 — amount permeated (starch gel membrane permeability; Gram-negative envelope surrogate; 200 µM, 30 min, pH 7.4): 2.07 nmol
CNCc1ccc(-c2[nH]c3cc(F)cc4c3c2CCNC4=O)cc1 — patients with adverse event (refers to: Dysgeusia; human patients; oral, dose not given, all grades, all doses): 14.3%
C[C@@H]1CCO[C@H]2Cn3cc(C(=O)NCc4ccc(F)cc4F)c(=O)c(O)c3C(=O)N12 — AUC(0-24) (human paediatric patients, weight sample B to under sample C kg, plasma; oral, 25 mg dispersible tablet, steady state, geometric mean, population PK post-hoc, N 22): 61400 ng·h/mL
CCc1cc(C(=O)NC)c2nccc(N3CCc4c(cc(Cn5ccnc5)cc4-c4cn(C)nc4C(F)(F)F)C3=O)c2c1 — AUC extrapolated (Sprague Dawley rats, male, plasma; oral, 100 mg/kg twice daily, 7 days): 0%
COc1cccc(-c2n[nH]c(SCc3ccccn3)n2)c1OC — Cmax (Sprague-Dawley rat, female, plasma; oral gavage, 30 mg/kg): 45400 ng/mL
O=C(O)[C@H]1O[C@@H](Oc2c(-c3ccc(O)cc3)oc3cc(O)cc(O)c3c2=O)[C@H](O)[C@@H](O)[C@@H]1O — plasma concentration (human plasma; median): 1020 nM
C[Si](C)(C)O[Si](C)(C)C — log KAW (regression; 25 °C): 2.49
CCOC(=O)[C@@]12C[C@@H]1[C@@H](n1ccc3c(NC)nc(C#Cc4ccc(Cl)s4)nc31)[C@H](O)[C@@H]2O — AUC extrapolated share (Sprague-Dawley rat, male, plasma; oral, 3.00 mg/kg): 1.7%
Cc1onc(-c2ccccc2)c1-c1ccc(S(N)(=O)=O)cc1 — necrotic cells (COS-7; 50 µM, 24 h, 0.1% DMSO, unit not given; relative to: vehicle control): 0.51 ± 0.08
COc1c(O)c(C)cc2c1C(=O)c1c(cc(O)c(O)c1O)C2=O — cell viability (HepaRG co-cultured with HK-2; MTT; 133.33 µM, 48 h; relative to: untreated control): 63.2 ± 6.5%
C[C@@H](N)C1CCN(S(=O)(=O)c2cccc3cnccc23)CC1 — duration of quantifiable plasma levels (healthy volunteers, fasted, plasma; oral, 250 mg): ≤ 8 h
O=C(COc1ccc(Cl)cc1)NC12CC(c3nnc([C@H]4C[C@@H](OC(F)(F)F)C4)o3)(C1)C2 — treatment-emergent adverse events (refers to: catheter site pain; healthy humans, both sexes; oral, 200 mg, single ascending dose; relative to: subjects): 16.7%
O=C(Nc1cnccc1Cl)N1CCN(Cc2ccc3c(c2)OC(F)(F)O3)CC1 — t1/2 (healthy young men, plasma; oral, 10 mg once daily, day 10): 8.14 h
C=CC(=O)Nc1cc(Nc2nccc(-c3cn(C)c4ccccc34)n2)c(OC)cc1N(C)CCN(C)C — recovery (storage stability; human plasma; 5 h, -80 °C, high QC level): 93.4%
Cc1cccc(CNC(=O)c2cn(CCNC(=O)c3ccccc3S)c3cc4c(cc3c2=O)OC(F)(F)O4)n1 — Tmax (Sprague-Dawley rat, male, whole blood; intravenous, 5 mg/kg of parent compound): 4.98 min
CC(C)NCC(O)COc1cccc2ccccc12 (stereo not drawn) — permeability coefficient (PAMPA; brain lipid membrane; 10 µM, 4 h): 6.89 ×10⁻⁶ cm/s
CCN(CC)CCCC(C)Nc1ccnc2cc(Cl)ccc12 (stereo not drawn) — metabolic activity (COS-7; WST-8; 100 µM, 24 h, 0.1% DMSO, unit not given; relative to: control): 0.49 ± 0.4
N#C[C@@]1(c2ccc3c(N)ncnn23)O[C@H](CO)[C@@H](O)[C@H]1O — recovery (plasma protein binding; human plasma; 100 µM, time not given): 94.7%
O=C(O)C=Cc1ccc(O[C@@H]2O[C@H](C(=O)O)[C@@H](O)[C@H](O)[C@H]2O)cc1 — plasma concentration (human plasma; median): 96.3 nM
COc1cc2c(c(OC)c1OC)C(=O)c1c(cc(C)c(O)c1OC)C2=O — cell viability (HepaRG co-cultured with HK-2; MTT; 66.67 µM, 48 h; relative to: untreated control): 77.7 ± 7.2%
N#Cc1ccc2c(c1)[C@H]1CCCN(C(=O)c3ccc4[nH]cnc4c3)[C@H]1C2 — DHEA-S level (human, female; 10 mg, day 7): 3.4 µmol/L

Some of these lines once more:
O=C(O)CCC(=O)O.[2H]C([2H])([2H])Oc1cc(C)c2[nH]ccc2c1CN1CC[C@@H](C2CC2)C[C@H]1c1ccc(C(=O)O)cc1 — subjects with muscle pain TEAE (multiple ascending dose; healthy Chinese subjects; 100 mg twice daily): 0%
COc1cccc(-c2n[nH]c(SCc3ccccn3)n2)c1OC — Cmax (Sprague-Dawley rat, female, plasma; oral gavage, 30 mg/kg): 45400 ng/mL
